# Assay results pooled from the literature.
# Numbered parts are unrelated; each lists some results of a single study.

# Sample 1 — technique: protein-binding microarray; molecule type: double-stranded DNA, one strand shown; matrix: in vitro; tested at: 2200 nM top; setting: 60-bp whole probe; with: salmon DNA 0.4 mg/ml; reference: random background probes; reading: higher = stronger binding; shared flanks, not repeated: GCCTAGCAC … GTCTTGATTCGCTTGACGCTGCTG
# Target: Interferon regulatory factor 7, full length, phosphomimetic (IRF7, Homo sapiens, UniProt Q92985, residues 1-503, S471D/S472D/S475D/S476D/S477D/S483D/S484D/S487D)
# Sequence of UniProt Q92985 (whole entry, unmodified, looked up): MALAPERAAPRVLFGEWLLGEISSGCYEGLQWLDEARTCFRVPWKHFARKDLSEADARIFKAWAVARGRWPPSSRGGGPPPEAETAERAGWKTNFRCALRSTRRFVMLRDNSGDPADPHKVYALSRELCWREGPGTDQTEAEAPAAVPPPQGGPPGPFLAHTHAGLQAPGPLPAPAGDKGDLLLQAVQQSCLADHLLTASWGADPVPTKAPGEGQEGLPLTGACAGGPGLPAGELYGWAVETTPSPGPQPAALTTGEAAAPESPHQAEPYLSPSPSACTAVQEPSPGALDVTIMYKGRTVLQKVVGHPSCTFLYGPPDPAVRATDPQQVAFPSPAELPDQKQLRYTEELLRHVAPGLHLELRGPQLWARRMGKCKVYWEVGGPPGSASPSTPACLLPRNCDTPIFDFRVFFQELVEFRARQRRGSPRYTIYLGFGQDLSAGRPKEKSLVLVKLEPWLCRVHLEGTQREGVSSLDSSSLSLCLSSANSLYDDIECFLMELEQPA
Strand,fitted relative affinity [z-score]
AGAAACTTGTATTTGTCCCTGTGCTAG,0.784
GACGATCTCAGTCTCGAGAAGTGCTAG,-0.00265
GTTATCCTATATCTGAACCGGTGCTAG,1.28
TTAGGACTCGGACTGGGTTAGTGCTAG,-0.446
CTAGTTGTGATTCTTTCGATGTGCTAG,2.25
GACGAACTGAGTTACGAGACGTGCTAG,-0.183
GACGGGCTGCTTTTCCTGACGTGCTAG,0.0912
TTAGGACTGATACTGCTTTAGTGCTAG,-0.0665
TCACTCTTTGGCAAAGCCAGGTGCTAG,0.862
GACGATCTCAGTCTCGGGACGTGCTAG,0.0666
TTAGATTCCAGTTTCTATTAGTGCTAG,3.13
TTAGGTTTCGTGTATCGGTTAGTGCTA,4.34
GACGATTTCAGTAGCGAGACGTGCTAG,0.274
GACGATCTCAGAATCGAGACGTGCTAG,-0.196
GACGGTTTCCTTTCCCTGGCGTGCTAG,4.51
TTCGGTATCGGGACTGGGTTAGTGCTA,0.594
CACGGTTTCCTACTGCTGACGTGCTAG,2.41
TTAGATCTCAATTTCGATTAGTGCTAG,2.48
TACGGTCTCCTTTTCCTGACGTGCTAG,1.98
TCATCTAAGGATTTCAGACTGTGCTAG,-0.0693
TTAGGTATCCTACTGCATTAGTGCTAG,0.483
GACGGTCTCCTTTTCCTAACGTGCTAG,1.52
TCAAGCCTCTGCATTCCCACTGTGCTA,0.702
TTAGATTTAAGTTTCGATTAGTGCTAG,5

# Sample 2 — technique: RNA Bind-n-Seq; molecule type: RNA; matrix: in vitro; tested at: 365 nM; reference: no-protein control; reading: higher = stronger binding
# Target: RNA binding protein fox-1 homolog 2, RRM domain, GST-SBP tag (RBFOX2, Homo sapiens, UniProt O43251-10, residues 100-194)
# Setting: natural RNA segment, single round, ends assumed
# Shared flanks, not repeated: GGGAGUUCUACAGUCCGACGAUC … UGGAAUUCUCGGGUGCCAA
# Target sequence (chain): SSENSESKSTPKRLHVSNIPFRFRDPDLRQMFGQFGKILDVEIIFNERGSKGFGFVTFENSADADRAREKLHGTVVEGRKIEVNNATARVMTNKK
Strand,RBNS enrichment (R)
GAGGAUAAGAGAUUUUCUCACAGGAAAUUGUCUUUUUCAUAAUUCUUUUACAGGCUUUGUCCUGAUCGUAGCAUAGAGAGAAUAGCUGGAUAUUUAACUUGUAUUCCAUU,0.743
GGGGUGCAGCCUAAAAGGACCUAUGUCCUCACACCAUUGAAACCACUAGUUCUGUCCCCCCAGGAGACCUGGUUGUGUGUGUGUGAGUGGUUGACCUUCCUCCAUCCCCU,0.241
UUUCUCCAGUAUAUUGUUGGUCACUCACAAAUGAUUCAUUUGAACACAUUUUAGGGAUAAGUAAUCAAAACCAUGAACUUUUAUUUGACUUCCCACCAAUGUCUAAACUA,0.448
UUCUAUGUUUAAUGCUUUACUAAUUUCCAGUAAGACUAUAUUUAAAACUACAUAGUCUUUCCUUAUUUUAUUUAGUAUGACAUUGUCAAUAGUAAUAAGGUAGCAUUUCU,0.431
CCUACCCUUCCUGCACUCCCUUCCCCAGUUCUGCUCAGCUCAGCUGUGGGAGGUAAACUUAAGCUGAAGGUGGCGGACUCUACUGUCGCAGGCCACAGCAGACAGGGUGG,0.236
UGUUGCUGGUUUUCAUCAUCUAUGAGGGUAAAACGAGUACCCUUAAAAUCCCUGUGGCCAGUUUGAACACCCCUGUUGUAUUCUUUUCUCUGUUCAGUGUGUCAGCUAUU,0.858
GAGGGCAUGAGGCUCCACUCAUUGUCUUGUGACUUCCAUCCCUGCUGAAUGGGGCUGCAAGGCCAAGGCUCCUUAGGGGAGAGGUCCUUACCUCUGAUCCACUUAGAGCA,1.02
GUAUUCUUAAACCGCAUGACUAUUCAGAUGGCUACUGAGUUAUCAGUGGCCAUUUAUUAGCAUCAUAUUUAUUUGUAUUUUCUCAACAGAUGUUAAGGUACAACUGUGUU,0.356
AUCCCCGAGGGAAGAGAGGUACCCAUGGCUUCAGUGAGCACAUGCCAAGCCCAGGAUGCCAGCUGGCACCUCUGCAAUCUCCCCACCAAAUACACAGAGCCAGCUCUACC,0.371
GCAACAUUUACAAGUGUGUCUGGAGUAAUCCUGUUUCCUCCCAGCUGCAAAGCUUCUCUCAAGUUCCUUAAUCCUUGAGAAUCUUAAGAGGCUUGCUGGCUGGUGAAAAA,0.414
AUACAGACAAAUACAUAAACCAAUGAAUAUAUUACAUAUUCUGUGUUCCAAUAAAACUUUAUUUAUGGACACUAAAAUUUGAAUUUCAUAAAAUUUUCCCAUGUCAAGAA,0.754
GGUGUAUCCUUUUCCUUUCAACACAGUGCAGAUAAGAGUUGAAUAUUGAUAUCAUACAUUUAGACUGCUGUUCUGAUUGCAUUUAUCUUUUUCCUACAUCAUUUAGAAUU,0.587

# Sample 3 — technique: RNA Bind-n-Seq; molecule type: RNA; matrix: in vitro; tested at: 1 µM; setting: whole 134-nt RNA, ends assumed; with: 150 mM KCl; reference: input library; reading: higher = stronger binding
# Target: Ras GTPase-activating protein-binding protein 1, RRM domain (G3BP1, Homo sapiens, UniProt Q13283)
# Sequence of UniProt Q13283 (whole entry, looked up): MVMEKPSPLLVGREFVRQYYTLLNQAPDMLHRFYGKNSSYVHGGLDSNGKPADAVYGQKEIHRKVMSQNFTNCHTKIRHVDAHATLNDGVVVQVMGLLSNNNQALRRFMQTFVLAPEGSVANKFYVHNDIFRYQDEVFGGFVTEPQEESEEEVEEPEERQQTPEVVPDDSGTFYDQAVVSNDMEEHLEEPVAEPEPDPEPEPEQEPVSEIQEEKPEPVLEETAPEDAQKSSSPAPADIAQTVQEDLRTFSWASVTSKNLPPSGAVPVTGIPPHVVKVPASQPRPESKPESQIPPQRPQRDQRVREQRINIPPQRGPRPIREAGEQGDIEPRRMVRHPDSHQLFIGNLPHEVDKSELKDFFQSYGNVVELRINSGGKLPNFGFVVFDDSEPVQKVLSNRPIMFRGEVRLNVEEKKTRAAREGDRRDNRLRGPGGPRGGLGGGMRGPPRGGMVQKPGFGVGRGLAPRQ
# Shared flanks, not repeated: GGGAGUUCUACAGUCCGACGAUC … UGGAAUUCUCGGGUGUCAAGG
Strand,log2 enrichment
CACAGACGACACGCACCCACACAGACACAGAGGGAAGGGGUUGGGAUGGGGACAGGGUGCACAGCAGGGCGGGGUAGGACCCCAGCCCCU,-0.0133
UGGGAGGUGGAUUUUGUUUAUUUUUUUAGCUCAUUUCCAGGGGUGGGAAUUUUUUUUUAAUAUGUGUCAUGAAUAAAGUUGUUUAUGAAA,1.3
AGUCCUGUGCUACACAUCGUAUGUACCGAAUCGGGGAAAGGGGAAAGGGGAAAGGGGAAAGUAUUAUGUUACGCCGUUCGGAUCUGCACU,1.78
UAUUCCAAUGUCUGUGGGAAUAAUUGACACAAGGACGAAUCCAAGCCAGUUAAAUGCGGUUGAAUUUCUGUGGGACCCAGCAAAACGCAC,0.216
CCUCAAGUCCUGUGCUACACAUCGUAUGUACCGAAUCGGAAGGAAGGGGAAGGAAAGUAUUAUGUUACGCCGUUCGGAUCUGCACUUCCA,-0.221
CCUCAAGUCCUGUGCUACACAUCGUAUGUACCGAAUCGGGUGGUGGGGUGGGGAAAGUAUUAUGUUACGCCGUUCGGAUCUGCACUUCCA,0.258
CAAGUCCUGUGCUACACAUCGUAUGUACCGAAUCGGUUUGGGGUUUGGGGUUUGGAAAGUAUUAUGUUACGCCGUUCGGAUCUGCACUUC,-0.402
CAAGUCCUGUGCUACACAUCGUAUGUACCGAAUCGGUUUGGUUUGGAAAAAAAGGAAAGUAUUAUGUUACGCCGUUCGGAUCUGCACUUC,-0.24
UCAAGUCCUGUGCUACACAUCGUAUGUACCGAAUCGGGGAAGGGGAAGGGAAGGAAAGUAUUAUGUUACGCCGUUCGGAUCUGCACUUCC,-0.196
CAAGUCCUGUGCUACACAUCGUAUGUACCGAAUCGGGCCCCGGGCCCCGGCCCCGGAAAGUAUUAUGUUACGCCGUUCGGAUCUGCACUU,-1.1
UCCUGUGCUACACAUCGUAUGUACCGAAUCGGGGUUUGGGGUUUGGGGUUUUUUUGGGGAAAGUAUUAUGUUACGCCGUUCGGAUCUGCA,1.51
UCCUGUGCUACACAUCGUAUGUACCGAAUCGGGGAGGGGUUUUUGGGGUUUUUUUGGGGAAAGUAUUAUGUUACGCCGUUCGGAUCUGCA,0.706
CCUGUGCUACACAUCGUAUGUACCGAAUCAAAUUUUUUUAAAUUUUUUUAAACCCCCAAAAAAGUAUUAUGUUACGCCGUUCGGAUCUGC,-1.11
CUCAAGUCCUGUGCUACACAUCGUAUGUACCGAAUCGGAAGGGAAGGGGAAGGAAAGUAUUAUGUUACGCCGUUCGGAUCUGCACUUCCA,-0.188

# Sample 4 — technique: protein binding microarray; molecule type: double-stranded DNA, one strand shown; matrix: in vitro; tested at: not given; reference: not given; reading: higher = stronger binding
# Target: Histone acetyltransferase KAT6A, both winged helices, GST fusion (KAT6A, Homo sapiens, UniProt Q92794, residues 1-181)
# Setting: 8-mer, flanks averaged, mean of 2 arrays, mostly near background
# Construct (chain): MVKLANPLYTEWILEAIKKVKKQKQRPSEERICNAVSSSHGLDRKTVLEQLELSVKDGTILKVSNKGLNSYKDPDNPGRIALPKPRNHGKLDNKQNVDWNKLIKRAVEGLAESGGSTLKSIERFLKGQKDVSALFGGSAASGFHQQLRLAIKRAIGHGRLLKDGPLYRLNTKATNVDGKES
Strand,E-score
AAATGCGA,0.0623
CGTACGCA,0.262
GCTAATCA,0.0279
ACGTTGTA,-0.0563
CGTTGCGC,0.324
ACCCGTGC,0.225
AACAGTTG,-0.125
AGTCTCCA,-0.198
CCTATAGA,-0.0387
AGGGGTTA,-0.242
GCTATCGA,0.135
CAGAACAA,-0.0329
CAATCGCG,0.14
ATGCAGGA,-0.258
GTGACTCA,-0.0209
AAGGACCC,-0.0429
AGACGTCA,-0.0432
TCATAACA,-0.0751
ACGTGGAA,0.152
CAGTAATA,-0.065
GATCGACA,-0.126
GCCGCCTA,0.214
